{"data": "Assay results from different studies", "cell line": "DU-145", "note": "Compare with care: the assays were run in different laboratories. pIC50: −log10 of the molar value."}
{"Compound": "C[C@]1([N+](=O)[O-])C(=O)c2ccccc2O[C@@H]1CC(=O)OC12CC3CC(CC(C3)C1)C2", "test": "cell growth or viability, SRB", "setting": "96 h", "pIC50": 5.60}
{"Compound": "NS(=O)(=O)c1ccc(/N=N/c2ccc(O)nc2O)cc1", "test": "cell growth or viability, resazurin", "setting": "72 h", "pIC50": "~3.50"}
{"Compound": "COc1cc(C(=O)NC2CCC(N3CCN(C[C@H]4CC4(F)F)CC3)CC2)c(F)cc1Nc1ncc2c(n1)N([C@H]1CCCC1(F)F)CC(F)(F)C(=O)N2C (stereo partly shown)", "test": "cell growth or viability, MTT", "setting": "72 h", "pIC50": 9.33}
{"Compound": "O=C(NCCc1ccccc1)c1ccccc1-n1c(=O)[nH]c2ccccc2c1=O", "test": "cell growth or viability, MTT", "setting": "24 h", "pIC50": 4.96}
{"Compound": "COC(=O)[C@@H](NC(=O)[C@@H](NC(=O)[C@@H](NC(=O)OC(C)(C)C)C(C)C)C(C)C)C(C)C", "test": "cell growth or viability, SRB", "pIC50": 4.77}
{"Compound": "Cc1ccc(C(C)C)cc1.O=C(N=P(c1ccccc1)(c1ccccc1)c1ccccc1)c1[c-]cccc1.[Cl-].[Ru+2]", "test": "cell growth or viability, MTT", "setting": "24 h", "pIC50": 4.85}
{"Compound": "C1=CCCC=CCC1.F[P-](F)(F)(F)(F)F.[Pt+][c]1ccccc1P(=Nc1ccccc1)(c1ccccc1)c1ccccc1", "test": "cell growth or viability, MTT", "setting": "24 h", "pIC50": 6.09}
{"Compound": "COc1cc(C(=O)NC2CCC(N3CCN(C[C@H]4CC[C@](C)(C(F)(F)F)C4)CC3)CC2)c(F)cc1Nc1ncc2c(n1)N([C@H]1CCCC1(F)F)CC(F)(F)C(=O)N2C (stereo partly shown)", "test": "cell growth or viability, MTT", "setting": "72 h", "pIC50": 9.74}
{"Compound": "O=[N+]([O-])c1ccc(C(c2c(-c3ccccc3)[nH]c3ccccc23)c2c(-c3ccccc3)[nH]c3ccccc23)cc1", "test": "cell growth or viability, MTT", "setting": "24 h", "pIC50": 4.04}
{"Compound": "COC(=O)[C@H]1CC[C@H](NC(=O)C[C@H]2Oc3ccccc3C(=O)[C@]2(C)[N+](=O)[O-])CC1", "test": "cell growth or viability, SRB", "setting": "96 h", "pIC50": 4.84}
{"Compound": "COC(=O)[C@H](C(C)C)N(C)C(=O)[C@@H]1CCCN1C(=O)[C@H](C)N(C)C(=O)OC(C)(C)C", "test": "cell growth or viability, SRB", "pIC50": 5.52}
{"Compound": "O=C([O][Ti+2][O]C(=O)c1ccc([P+]([Au-][Cl])(c2ccccc2)c2ccccc2)cc1)c1ccc([P+]([Au-][Cl])(c2ccccc2)c2ccccc2)cc1.c1cc[cH-]c1.c1cc[cH-]c1", "test": "cell viability, XTT", "setting": "24 h", "pIC50": 4.48}
{"Compound": "CC(=O)[C@@H]1CCCN1C(=O)[C@@H]1CCCN1C(=O)[C@H](Cc1ccccc1)N(C)C(=O)OC(C)(C)C", "test": "cell growth or viability, SRB", "pIC50": 6.00}
{"Compound": "C[C@]1([N+](=O)[O-])C(=O)c2ccccc2O[C@@H]1CC(=O)OC1CCCCC1", "test": "cell growth or viability, SRB", "setting": "96 h", "pIC50": 4.68}
{"Compound": "CC(=O)C=C(C)[O][Pd][c]1ccccc1C(=O)N=P12CN3CN(CN(C3)C1)C2", "test": "cell growth or viability, MTT", "setting": "24 h", "pIC50": 4.02}
{"Compound": "Cl.[Cl][Ru-4]123([n+]4ccccc4-c4cc(-c5ccccc5)cc([n+]41)-c1cccc[n+]12)[n+]1ccc(-c2ccccc2)c2ccc4c(-c5ccccc5)cc[n+]3c4c21", "test": "cell growth or viability", "setting": "72 h, 3D culture", "pIC50": 5.31}
{"Compound": "O=C(/C=C/C=C/c1ccccc1)c1ccccc1OCc1cc(F)cc(F)c1", "test": "cell growth or viability, MTT", "setting": "48 h", "pIC50": 4.33}
{"Compound": "COc1cc(C2Oc3ccc(C=C4Oc5cc(O)ccc5C4=O)cc3OC2CO)cc(OC)c1O (stereo not shown)", "test": "cell growth or viability, MTT", "setting": "72 h", "pIC50": 4.12}
{"Compound": "O=C(O)c1ccc([P+]([Au-][Cl])(c2ccccc2)c2ccccc2)cc1", "test": "cell viability, XTT", "setting": "24 h", "pIC50": 4.49}
{"Compound": "COc1ccc(C(c2c[nH]c3ccccc23)c2c[nH]c3ccccc23)cc1", "test": "cell growth or viability, MTT", "setting": "24 h", "pIC50": 5.29}
{"Compound": "C[C@]1([N+](=O)[O-])C(=O)c2ccccc2O[C@@H]1CC(=O)Oc1ccccc1", "test": "cell growth or viability, SRB", "setting": "96 h", "pIC50": "< 4.30"}
{"Compound": "CCC(CC)c1nc(-c2ccc(O)cc2O)cs1", "test": "cell growth or viability, resazurin", "setting": "72 h", "pIC50": 5.06}
{"Compound": "COc1cc(C(=O)NC2CCC(N3CCN(CC4CCC5(CCCC5)C4)CC3)CC2)c(F)cc1Nc1ncc2c(n1)N(C1CCCC1(F)F)CC(F)(F)C(=O)N2C (stereo not shown)", "test": "cell growth or viability, MTT", "setting": "72 h", "pIC50": 10.05}
{"Compound": "CC(=O)N[C@@H](CC(C)C)C(=O)N[C@@H](CC(C)C)C(=O)N[C@@H](CC(C)C)C(=O)N[C@@H](CC(C)C)C(=O)N[C@@H](CCCNC(=N)N)C(=O)N[C@H](C(=O)N[C@@H](CCCCN)C(=O)N[C@@H](CCCNC(=N)N)C(N)=O)C(C)C", "test": "cell growth or viability, MTT", "setting": "72 h", "pIC50": "4.00 to 4.10"}
{"Compound": "Cc1ccc(C(C)C)cc1.F[P-](F)(F)(F)(F)F.O=C(N=P(c1ccccc1)(c1ccccc1)c1ccccc1)c1ccccn1.[Cl-].[Ru+2]", "test": "cell growth or viability, MTT", "setting": "24 h", "pIC50": 5.72}
{"Compound": "COc1ccc(C(c2c[nH]c3ccc(Br)cc23)c2c[nH]c3ccc(Br)cc23)cc1", "test": "cell growth or viability, MTT", "setting": "24 h", "pIC50": 5.25}
{"Compound": "C[C@]1([N+](=O)[O-])C(=O)c2ccccc2O[C@@H]1CC(=O)Nc1nc2ccccc2s1", "test": "cell growth or viability, SRB", "setting": "96 h", "pIC50": "< 4.30"}
{"Compound": "O=C(N=P12CN3CN(CN(C3)C1)C2)c1cccc[c]1[Pd].O=C(N=P12CN3CN(CN(C3)C1)C2)c1cccc[c]1[Pd]([Br])[Br]", "test": "cell growth or viability, MTT", "setting": "24 h", "pIC50": 4.31}
{"Compound": "N.N.[Cl][Pt+].c1ccc2c(c1)cnc1ccccc12", "test": "cell growth or viability", "setting": "72 h, 3D culture", "pIC50": 6.08}
{"Compound": "Cc1ccc(C(C)C)cc1.O=C(N=P12CN3CN(CN(C3)C1)C2)c1[c-]cccc1.[Cl-].[Ru+2]", "test": "cell growth or viability, MTT", "setting": "24 h", "pIC50": 3.90}
{"Compound": "O=C(Nc1ccccc1)c1ccccc1-n1c(=O)[nH]c2ccc(F)cc2c1=O", "test": "cell growth or viability, MTT", "setting": "24 h", "pIC50": 4.94}
{"note": "For quick reference, copied from above:"}
{"Compound": "COc1cc(C2Oc3ccc(C=C4Oc5cc(O)ccc5C4=O)cc3OC2CO)cc(OC)c1O (stereo not shown)", "test": "cell growth or viability, MTT", "setting": "72 h", "pIC50": 4.12}
{"Compound": "O=C(O)c1ccc([P+]([Au-][Cl])(c2ccccc2)c2ccccc2)cc1", "test": "cell viability, XTT", "setting": "24 h", "pIC50": 4.49}
{"Compound": "COc1ccc(C(c2c[nH]c3ccccc23)c2c[nH]c3ccccc23)cc1", "test": "cell growth or viability, MTT", "setting": "24 h", "pIC50": 5.29}
{"Compound": "C[C@]1([N+](=O)[O-])C(=O)c2ccccc2O[C@@H]1CC(=O)Oc1ccccc1", "test": "cell growth or viability, SRB", "setting": "96 h", "pIC50": "< 4.30"}
{"Compound": "CCC(CC)c1nc(-c2ccc(O)cc2O)cs1", "test": "cell growth or viability, resazurin", "setting": "72 h", "pIC50": 5.06}
